Assay results of several laboratories.
± gives the spread as reported.
Secreted effector protein N-terminal domain: Secreted effector protein, N-terminal domain (Yersinia pestis, UniProt O68720)
cyp121: Mycocyclosin synthase (cyp121, Mycobacterium tuberculosis, UniProt P9WPP7)
Chain of UniProt P9WPP7 (whole entry, looked up): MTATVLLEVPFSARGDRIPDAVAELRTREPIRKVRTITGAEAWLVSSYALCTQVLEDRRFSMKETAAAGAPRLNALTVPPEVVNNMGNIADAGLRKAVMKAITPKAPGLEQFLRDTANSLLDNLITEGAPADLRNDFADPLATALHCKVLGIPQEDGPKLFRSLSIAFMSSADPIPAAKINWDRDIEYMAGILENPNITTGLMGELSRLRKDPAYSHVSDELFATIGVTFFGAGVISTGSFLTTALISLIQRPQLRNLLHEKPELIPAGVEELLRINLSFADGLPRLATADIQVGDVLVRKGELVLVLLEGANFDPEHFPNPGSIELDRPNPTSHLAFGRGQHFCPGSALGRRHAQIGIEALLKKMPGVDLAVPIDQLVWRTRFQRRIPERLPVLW
Chain of UniProt Q05323 (whole entry, looked up): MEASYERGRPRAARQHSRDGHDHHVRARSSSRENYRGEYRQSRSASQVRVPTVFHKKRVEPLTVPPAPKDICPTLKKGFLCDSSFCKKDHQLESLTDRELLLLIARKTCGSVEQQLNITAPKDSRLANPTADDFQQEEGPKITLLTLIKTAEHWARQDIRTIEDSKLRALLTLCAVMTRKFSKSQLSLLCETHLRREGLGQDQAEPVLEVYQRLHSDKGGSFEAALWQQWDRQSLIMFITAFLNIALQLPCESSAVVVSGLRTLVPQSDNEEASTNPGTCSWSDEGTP
Chain of UniProt P41146 (whole entry, looked up): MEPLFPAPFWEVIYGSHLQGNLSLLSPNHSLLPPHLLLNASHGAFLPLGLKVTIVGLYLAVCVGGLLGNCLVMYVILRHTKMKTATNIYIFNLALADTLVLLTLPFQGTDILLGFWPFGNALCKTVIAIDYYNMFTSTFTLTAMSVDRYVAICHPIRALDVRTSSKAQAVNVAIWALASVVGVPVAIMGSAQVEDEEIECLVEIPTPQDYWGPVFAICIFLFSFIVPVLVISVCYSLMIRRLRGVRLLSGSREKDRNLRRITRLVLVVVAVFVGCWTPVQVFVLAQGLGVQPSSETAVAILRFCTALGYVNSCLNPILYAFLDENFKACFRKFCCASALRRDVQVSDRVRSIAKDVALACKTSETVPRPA
Chain of UniProt O82882 (whole entry, looked up): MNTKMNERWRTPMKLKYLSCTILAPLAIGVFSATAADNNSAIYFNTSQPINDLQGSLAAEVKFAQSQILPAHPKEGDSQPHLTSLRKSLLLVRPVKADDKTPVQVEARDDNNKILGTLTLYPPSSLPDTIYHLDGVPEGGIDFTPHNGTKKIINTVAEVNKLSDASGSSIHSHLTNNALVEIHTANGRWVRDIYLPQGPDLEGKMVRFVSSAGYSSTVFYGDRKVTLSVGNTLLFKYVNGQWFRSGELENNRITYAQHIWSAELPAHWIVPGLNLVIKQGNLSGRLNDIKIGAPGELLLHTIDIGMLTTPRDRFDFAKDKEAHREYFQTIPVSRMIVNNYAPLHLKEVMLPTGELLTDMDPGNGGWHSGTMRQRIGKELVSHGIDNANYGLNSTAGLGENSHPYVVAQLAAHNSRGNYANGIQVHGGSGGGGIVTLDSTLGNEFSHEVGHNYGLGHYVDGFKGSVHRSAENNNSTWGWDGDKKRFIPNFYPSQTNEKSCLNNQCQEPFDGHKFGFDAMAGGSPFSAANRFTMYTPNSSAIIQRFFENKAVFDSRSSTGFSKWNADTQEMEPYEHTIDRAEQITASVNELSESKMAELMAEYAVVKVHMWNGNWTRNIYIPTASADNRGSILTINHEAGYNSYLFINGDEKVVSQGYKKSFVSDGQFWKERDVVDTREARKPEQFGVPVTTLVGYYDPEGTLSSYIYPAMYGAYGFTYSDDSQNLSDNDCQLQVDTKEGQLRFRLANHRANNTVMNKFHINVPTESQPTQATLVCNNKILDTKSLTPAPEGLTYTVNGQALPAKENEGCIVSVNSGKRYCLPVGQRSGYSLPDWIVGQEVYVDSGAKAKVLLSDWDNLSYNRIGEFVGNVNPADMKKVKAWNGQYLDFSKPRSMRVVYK
Chain of UniProt P9WPC9 (whole entry, looked up): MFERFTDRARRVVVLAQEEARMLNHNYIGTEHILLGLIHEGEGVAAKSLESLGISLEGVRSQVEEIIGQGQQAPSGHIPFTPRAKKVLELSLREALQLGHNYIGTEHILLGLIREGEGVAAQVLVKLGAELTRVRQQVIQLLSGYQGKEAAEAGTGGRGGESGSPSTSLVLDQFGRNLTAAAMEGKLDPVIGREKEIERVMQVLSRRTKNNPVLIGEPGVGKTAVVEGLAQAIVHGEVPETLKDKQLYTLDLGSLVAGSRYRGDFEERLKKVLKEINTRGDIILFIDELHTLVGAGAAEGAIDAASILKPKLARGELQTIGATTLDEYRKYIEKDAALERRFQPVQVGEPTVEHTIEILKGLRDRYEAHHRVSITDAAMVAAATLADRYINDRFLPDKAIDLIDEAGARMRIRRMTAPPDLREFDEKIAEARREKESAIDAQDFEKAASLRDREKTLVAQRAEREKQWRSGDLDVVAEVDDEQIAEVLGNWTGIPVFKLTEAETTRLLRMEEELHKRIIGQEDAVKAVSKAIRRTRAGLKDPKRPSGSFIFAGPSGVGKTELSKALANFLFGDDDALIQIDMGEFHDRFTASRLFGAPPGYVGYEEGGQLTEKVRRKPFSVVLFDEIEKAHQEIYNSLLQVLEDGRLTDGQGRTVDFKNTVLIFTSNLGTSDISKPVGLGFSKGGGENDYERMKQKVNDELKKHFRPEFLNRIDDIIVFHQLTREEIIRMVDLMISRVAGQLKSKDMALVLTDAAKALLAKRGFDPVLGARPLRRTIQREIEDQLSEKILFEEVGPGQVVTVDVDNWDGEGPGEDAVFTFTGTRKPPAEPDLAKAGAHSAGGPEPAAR
Chain of UniProt P41145 (whole entry, looked up): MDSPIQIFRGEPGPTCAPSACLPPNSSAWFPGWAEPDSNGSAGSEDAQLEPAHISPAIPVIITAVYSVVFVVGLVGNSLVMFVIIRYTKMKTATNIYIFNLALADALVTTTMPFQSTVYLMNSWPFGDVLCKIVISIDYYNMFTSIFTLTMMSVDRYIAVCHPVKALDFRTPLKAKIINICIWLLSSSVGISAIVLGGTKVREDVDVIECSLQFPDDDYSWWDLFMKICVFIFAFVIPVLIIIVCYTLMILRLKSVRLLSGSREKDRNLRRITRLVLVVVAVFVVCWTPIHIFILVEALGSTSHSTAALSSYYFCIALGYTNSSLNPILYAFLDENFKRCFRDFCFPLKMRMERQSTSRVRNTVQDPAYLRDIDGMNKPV
Chain of UniProt P0C2E9 (whole entry, looked up): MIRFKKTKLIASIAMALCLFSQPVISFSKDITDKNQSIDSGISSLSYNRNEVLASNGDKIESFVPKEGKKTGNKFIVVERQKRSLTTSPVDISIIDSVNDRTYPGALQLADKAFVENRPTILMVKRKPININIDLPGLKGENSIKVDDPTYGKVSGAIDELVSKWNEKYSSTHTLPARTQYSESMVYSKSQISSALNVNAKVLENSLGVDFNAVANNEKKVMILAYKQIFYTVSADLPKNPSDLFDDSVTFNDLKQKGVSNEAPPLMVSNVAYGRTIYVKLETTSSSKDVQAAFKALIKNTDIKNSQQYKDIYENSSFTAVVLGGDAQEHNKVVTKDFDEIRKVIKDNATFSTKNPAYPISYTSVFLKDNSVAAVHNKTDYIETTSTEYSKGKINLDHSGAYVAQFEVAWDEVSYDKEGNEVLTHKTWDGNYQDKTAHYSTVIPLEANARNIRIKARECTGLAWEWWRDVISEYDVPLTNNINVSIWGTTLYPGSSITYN

O=C(CCOCC(COCCC(=O)NC(Cc1c(-c2cc(C(=O)O)cc(C(=O)O)c2)[nH]c2c(-c3cc(C(=O)O)cc(C(=O)O)c3)cccc12)C(=O)O)(COCCC(=O)NC(Cc1c(-c2cc(C(=O)O)cc(C(=O)O)c2)[nH]c2c(-c3cc(C(=O)O)cc(C(=O)O)c3)cccc12)C(=O)O)COCCC(=O)NC(Cc1c(-c2cc(C(=O)O)cc(C(=O)O)c2)[nH]c2c(-c3cc(C(=O)O)cc(C(=O)O)c3)cccc12)C(=O)O)NC(Cc1c(-c2cc(C(=O)O)cc(C(=O)O)c2)[nH]c2c(-c3cc(C(=O)O)cc(C(=O)O)c3)cccc12)C(=O)O (stereo not shown) — Kd (SBA.1): ~5 µM
CCCCCCCCCCCCCCCC(=O)N[C@@H](CCC(=O)NCCOCCOCCC(=O)NCCOCCOCCC(=O)NCCCC[C@H](NC(=O)[C@H](CC(=O)O)NC(=O)[C@H](CC(C)C)NC(=O)[C@H](Cc1ccc(O)cc1)NC(=O)[C@H](CCCCN)NC(=O)[C@H](CO)NC(=O)[C@H](Cc1ccc(O)cc1)NC(=O)[C@H](CC(=O)O)NC(=O)[C@H](CO)NC(=O)[C@@H](NC(=O)[C@H](Cc1ccccc1)NC(=O)[C@@H](NC(=O)CNC(=O)[C@H](CCC(N)=O)NC(=O)[C@@H](CO)NC(=O)[C@@H](N)Cc1c[nH]cn1)[C@@H](C)O)[C@@H](C)O)C(=O)N[C@@H](CCCNC(=N)N)C(=O)N[C@@H](CCCNC(=N)N)C(=O)N[C@@H](C)C(=O)N[C@@H](CCC(N)=O)C(=O)N[C@@H](CC(=O)O)C(=O)N[C@@H](Cc1ccccc1)C(=O)N[C@H](C(=O)N[C@@H](CCC(N)=O)C(=O)N[C@@H](Cc1c[nH]c2ccccc12)C(=O)N[C@@H](CC(C)C)C(=O)N[C@@H](CC(C)C)C(=O)N[C@@H](CC(N)=O)C(=O)N[C@H](C(=O)NCC(=O)NCC(=O)N1CCC[C@H]1C(=O)N[C@@H](CO)C(=O)N[C@@H](CO)C(=O)NCC(=O)N[C@@H](C)C(=O)N1CCC[C@H]1C(=O)N1CCC[C@H]1C(=O)N1CCC[C@H]1C(=O)N[C@@H](CO)C(N)=O)[C@@H](C)O)C(C)C)C(=O)O — urea (rhesus monkey, female; subcutaneous, 20 µg/kg once daily, 28 days): 6.44 ± 0.81 mmol/L
O=[N+]([O-])c1cc(C(F)(F)F)cc([N+](=O)[O-])c1NNC(=S)Nc1ccc(F)cc1 — Kd (Transcriptional activator VP30 (VP30, Zaire ebolavirus, UniProt Q05323); Ebola virus): 0.88 µM
CC[C@H](C)[C@H](NC(=O)[C@H](CCCCN)NC(=O)[C@H](Cc1c[nH]c2ccccc12)NC(=O)[C@H](CC(C)C)NC(=O)[C@H](CC(C)C)NC(=O)[C@H](CC(=O)O)NC(=O)[C@@H](NC(=O)[C@H](CCCNC(=N)N)NC(=O)[C@H](CCC(=O)O)NC(=O)[C@H](CCCNC(=N)N)NC(=O)[C@H](CC(=O)O)NC(=O)[C@H](CC(C)C)NC(C)=O)[C@@H](C)CC)C(=O)N[C@@H](C)C(=O)N[C@@H](CCCNC(=N)N)C(=O)N[C@@H](C)C(=O)NCC(=O)N[C@@H](C)C(=O)N[C@@H](CCCNC(=N)N)C(=O)N[C@@H](CO)C(=O)N[C@@H](C)C(=O)N[C@H](C(=O)NCC(N)=O)C(C)C — Kd (membrane partitioning, far-UV CD; POPC:POPG:cholesterol SUV; pH 7.5, 25 °C): 2200 ± 200 µM
CC[C@H](C)[C@H](NC(=O)[C@H](CC(C)C)NC(=O)[C@@H](N)Cc1ccc(O)cc1)C(=O)N[C@@H](CSCC(N)=O)C(=O)N[C@@H](Cc1ccc(O)cc1)C(=O)N[C@H](C(=O)N[C@@H](CC(=O)O)C(=O)N[C@@H](CSCC(N)=O)C(=O)NCC(=O)N[C@@H](Cc1ccccc1)C(=O)N[C@@H](CC(C)C)C(=O)N[C@@H](CCCCN)C(=O)N[C@@H](CCCCN)C(=O)N[C@@H](CCCCN)C(=O)N[C@@H](CCCCNC(=O)CCCC[C@@H]1SC[C@@H]2NC(=O)N[C@@H]21)C(N)=O)[C@@H](C)O — Kd (Gag polyprotein, capsid C-terminal domain (gag, UniProt P12493); binding, biolayer interferometry; PBS; pH 7.4, 30 °C, biotinylated peptide immobilised, together with: C-CA 5 to 100 µM): > 100 µM
COc1cc([N+](=O)[O-])cc(/C=N/NC(=O)[C@H]2COc3ccccc3O2)c1O — Kd (uncharacterized protein (Candidatus Liberibacter solanacearum, UniProt A0A094YYW1)): 14200 µM
CCCCCCCCCCCCCCCC(=O)N[C@@H](CCC(=O)NCCCC[C@H](NC(=O)[C@H](CC(=O)O)NC(=O)[C@H](CO)NC(=O)[C@@H](NC(=O)[C@H](Cc1ccccc1)NC(=O)[C@@H](NC(=O)CNC(=O)[C@H](CCC(N)=O)NC(=O)[C@H](C)NC(=O)[C@@H](Cc1ccc(O)cc1)NC(C)=O)[C@@H](C)O)[C@@H](C)O)C(=O)N[C@@H](CO)C(=O)N[C@@H](CCCCN)C(=O)N[C@@H](Cc1ccc(O)cc1)C(=O)N[C@@H](CC(C)C)C(=O)N[C@@H](CC(=O)O)C(=O)N[C@@H](CCC(=O)O)C(=O)N[C@@H](CCCNC(=N)N)C(=O)N[C@@H](C)C(=O)N[C@@H](C)C(=O)N[C@@H](CCC(N)=O)C(=O)N[C@@H](CC(=O)O)C(=O)N[C@@H](Cc1ccccc1)C(=O)N[C@H](C(=O)N[C@@H](CCC(N)=O)C(=O)N[C@@H](Cc1c[nH]c2ccccc12)C(=O)N[C@@H](CC(C)C)C(=O)N[C@@H](CC(C)C)C(=O)N[C@@H](CCC(=O)O)C(=O)NCC(=O)NCC(=O)N1CCC[C@H]1C(=O)N[C@@H](CO)C(=O)N[C@@H](CO)C(=O)NCC(=O)N[C@@H](C)C(=O)N1CCC[C@H]1C(=O)N1CCC[C@H]1C(=O)N1CCC[C@H]1C(=O)N[C@@H](CO)C(N)=O)C(C)C)C(=O)O — clearance (cynomolgus monkey, plasma; intravenous, 0.0031 mg/kg): 0.102 to 0.141 mL/min/kg
CC(=O)N[C@@H](Cc1ccccc1)C(=O)N[C@@H](Cc1ccc(OP(=O)(O)O)cc1)C(=O)N[C@H](C(=O)N[C@@H](CC(=O)O)C(=O)N1CCC[C@H]1C(N)=O)C1CCCC1 — Kd (Secreted effector protein N-terminal domain; biochemical): 0.31 µM
Cc1ccc(N2CC3CC(C2)N3C)cc1C(=O)NC1(c2ccc3c4c(cccc24)C(=O)N3C)CC1 — Kd (Replicase polyprotein 1a, papain-like protease (Severe acute respiratory syndrome coronavirus 2, UniProt P0DTC1); binding, ITC): 0.0246 µM
CC[C@@H](C)[C@@H](NC(=O)[C@@H](CCCCN)NC(=O)[C@@H](CCCCN)NC(=O)[C@@H](CC(C)C)NC(=O)[C@@H](Cc1c[nH]c2ccccc12)NC(=O)CN)C(=O)NCC(=O)N[C@H](CCCCN)C(=O)N[C@H](CCCCN)C(=O)N[C@@H](C(=O)N[C@H](CCC(=O)O)C(=O)N[C@H](CCCNC(=N)N)C(=O)N[C@@H](C(=O)NCC(=O)N[C@H](CCC(N)=O)C(=O)N[C@H](Cc1c[nH]cn1)C(=O)N[C@@H](C(=O)N[C@H](CCCNC(=N)N)C(=O)N[C@H](CC(=O)O)C(=O)N[C@H](C)C(=O)N[C@@H](C(=O)N[C@@H](C(=O)N[C@H](CCC(N)=O)C(=O)N[C@@H](C(=O)N[C@@H](C(=O)NCC(=O)N[C@@H](C(=O)N[C@H](C)C(=O)N[C@H](CCC(N)=O)C(=O)N[C@H](CCC(N)=O)C(=O)N[C@H](C)C(=O)N[C@H](C)C(=O)N[C@H](CC(N)=O)C(=O)N[C@@H](C(=O)N[C@H](C)C(=O)N[C@H](C)C(=O)N[C@@H](C(=O)N[C@H](CC(C)C)C(=O)N[C@H](CCCCN)C(N)=O)[C@H](C)O)C(C)C)C(C)C)[C@H](C)CC)[C@H](C)O)[C@H](C)CC)[C@H](C)O)[C@H](C)O)C(C)C)[C@H](C)CC — no-observed-effect concentration (HepG2; cytotoxicity, refers to: intracellular ATP): 420 mg/L
CC(=O)N[C@@H](Cc1ccccc1)C(=O)N[C@@H](Cc1ccc(OP(=O)(O)O)cc1)C(=O)N[C@H](C(=O)N[C@@H](Cc1c[nH]c2ccccc12)C(=O)N1CCC[C@H]1C(N)=O)C1CCCC1 — Kd (Secreted effector protein N-terminal domain; biochemical): 3.1 µM
CC(C)C[C@H](NC(=O)[C@H](CO[C@@H]1O[C@H](CO)[C@@H](O[C@@H]2O[C@H](CO)[C@H](O)[C@H](O)[C@H]2O)[C@H](O)[C@H]1O)NC(=O)[C@H](CCCCN)NC(=O)[C@H](CC(C)C)NC(=O)C(C)(C)NC(=O)[C@H](CCCCN)NC(=O)[C@H](CCC(=O)O)NC(=O)C(C)(C)NC(=O)[C@H](CC(C)C)NC(=O)[C@H](CC(N)=O)NC(=O)[C@@H]1CCCN1C(=O)[C@H](CC(C)C)NC(=O)[C@H](Cc1ccccc1)NC(=O)CNC(=O)[C@H](NC(=O)[C@@H](N)Cc1ccc(O)cc1)[C@H](C)O)C(N)=O — Ki (OPRK1 (Homo sapiens, UniProt P41145); ligand displacement, radioligand; pH 7.5, cell membranes): 0.017 µM
COc1ccc(-c2ccc3c(c2)CCC3n2ccnc2)cc1 (stereo not shown) — Kd (cyp121; binding): 4.7 ± 0.8 µM
CC(=O)NC1C(O)OC(CO)C(O)C1OC1OC(CO)C(O)C(O)C1O (stereo not shown) — Kd (pfo (Clostridium perfringens, UniProt P0C2E9); binding): 46 µM
C=CC(c1ccc(-c2ccc(OC)c(F)c2)cc1)n1ccnc1 (stereo not shown) — Kd (cyp121; binding): 7.1 ± 0.7 µM
CC(=O)N[C@H]1[C@@H](OC[C@H](NC(=O)[C@H](C)NC(=O)[C@H](C)N)C(=O)N[C@H](C(=O)N[C@H](C(=O)N[C@H](C(=O)N2CCC[C@H]2C(=O)N[C@@H](C)C(=O)N2CCC[C@H]2C(=O)N[C@@H](C)C(N)=O)[C@@H](C)O[C@H]2O[C@H](CO)[C@H](O)[C@H](O[C@@H]3O[C@H](CO)[C@H](O)[C@H](O)[C@H]3O)[C@H]2NC(C)=O)[C@@H](C)O[C@H]2O[C@H](CO)[C@H](O)[C@H](O[C@@H]3O[C@H](CO)[C@H](O)[C@H](O)[C@H]3O)[C@H]2NC(C)=O)[C@@H](C)O[C@H]2O[C@H](CO)[C@H](O)[C@H](O[C@@H]3O[C@H](CO)[C@H](O)[C@H](O)[C@H]3O)[C@H]2NC(C)=O)O[C@H](CO)[C@H](O)[C@@H]1O[C@@H]1O[C@H](CO)[C@H](O)[C@H](O)[C@H]1O — Kd (Metalloprotease StcE (stcE, Escherichia coli O157:H7, UniProt O82882); binding; Escherichia coli, EHEC): 0.000268 ± 3e-06 µM
Fc1ccc(-c2ccc(Cn3ccnc3)c(F)c2)c(F)c1 — Kd (cyp121; binding): 12.6 ± 2 µM
CC[C@H](C)[C@H](NC(=O)[C@H](CC(N)=O)NC(=O)[C@H](CCCNC(=N)N)NC(=O)[C@H](CCCNC(=N)N)NC(=O)CNC(=O)[C@@H](NC(=O)[C@H](CC(C)C)NC(=O)[C@H](CCC(N)=O)NC(=O)[C@@H]1CC(=O)NCC(=O)N[C@@H](CC(C)C)C(=O)N[C@@H](CCCNC(=N)N)C(=O)N[C@@H](CCCNC(=N)N)C(=O)N[C@@H](CC(C)C)C(=O)N[C@@H](Cc2ccccc2)C(=O)N[C@@H](C)C(=O)N1)C(C)C)C(=O)OC — Kd (clpC1 (Mycobacterium tuberculosis, UniProt P9WPC9); biochemical; pH 7.8): 0.41 µM
Cc1cc(O)cc(C)c1C[C@H](N)C(=O)NCC(=O)NCC(=O)N[C@@H](Cc1ccccc1)C(=O)N[C@H](C(=O)NCC(=O)N[C@@H](C)C(=O)N[C@@H](CCCNC(=N)N)C(=O)N[C@@H](CCCCN)C(=O)N[C@@H](CO)C(=O)N[C@@H](C)C(=O)N[C@@H](CCCNC(=N)N)C(=O)N[C@@H](CCCCN)C(N)=O)[C@@H](C)O — EC50 (Nociceptin receptor (OPRL1, Homo sapiens, UniProt P41146); calcium mobilisation, agonist; CHO with Gαqi5; NOP receptor): 0.000661 µM

Excerpt of the above:
CC(=O)N[C@H]1[C@@H](OC[C@H](NC(=O)[C@H](C)NC(=O)[C@H](C)N)C(=O)N[C@H](C(=O)N[C@H](C(=O)N[C@H](C(=O)N2CCC[C@H]2C(=O)N[C@@H](C)C(=O)N2CCC[C@H]2C(=O)N[C@@H](C)C(N)=O)[C@@H](C)O[C@H]2O[C@H](CO)[C@H](O)[C@H](O[C@@H]3O[C@H](CO)[C@H](O)[C@H](O)[C@H]3O)[C@H]2NC(C)=O)[C@@H](C)O[C@H]2O[C@H](CO)[C@H](O)[C@H](O[C@@H]3O[C@H](CO)[C@H](O)[C@H](O)[C@H]3O)[C@H]2NC(C)=O)[C@@H](C)O[C@H]2O[C@H](CO)[C@H](O)[C@H](O[C@@H]3O[C@H](CO)[C@H](O)[C@H](O)[C@H]3O)[C@H]2NC(C)=O)O[C@H](CO)[C@H](O)[C@@H]1O[C@@H]1O[C@H](CO)[C@H](O)[C@H](O)[C@H]1O — Kd (Metalloprotease StcE (stcE, Escherichia coli O157:H7, UniProt O82882); binding; Escherichia coli, EHEC): 0.000268 ± 3e-06 µM
Fc1ccc(-c2ccc(Cn3ccnc3)c(F)c2)c(F)c1 — Kd (cyp121; binding): 12.6 ± 2 µM
